Published values collected from several papers.
Each numbered part is a random draw from the data of one study; scales do not carry over between parts.

Series 1
Target: Prothrombin, mature alpha-thrombin (F2, Homo sapiens, UniProt P00734)
Method: aptamer microarray, sandwich
Form: DNA with 2'F-ANA
Sample: in vitro
Tested at: 200 nM
Setting: whole 15-mer aptamer, many near background
Together with: Cy3 exosite-II aptamer, 400 nM
Reading: higher = stronger binding
Strand: GGTTGGTGTGGTTGG
`2'F-ANA at 1 2 3 5 8 9 10 11 12 13 15` — result for “mean fluorescence intensity”: 66.4 a.u.
Under “mean fluorescence intensity”, `2'F-ANA at 1 6 7 8 10 11 12` is recorded as 77.9 a.u.
`2'F-ANA at 1 3 4 7 8 9 12` — result for “mean fluorescence intensity”: 481 a.u.
For `2'F-ANA at 1 2 4 6 7 8 11 15`, “mean fluorescence intensity” read 113 a.u.
`2'F-ANA at 1 3 4 6 7 8 13` — result for “mean fluorescence intensity”: 142 a.u.
`2'F-ANA at 3 4 5 7 8 9 11 12 13`: “mean fluorescence intensity” 120 a.u.
`2'F-ANA at 1 2 4 10 11 13 15` — result for “mean fluorescence intensity”: 49.3 a.u.
Under “mean fluorescence intensity”, `2'F-ANA at 2 5 11 12 15` is recorded as 168 a.u.
Under “mean fluorescence intensity”, `2'F-ANA at 3 6 7 9 11 14` is recorded as 454 a.u.
For `2'F-ANA at 1 3 4 5 6 7 8 11 14`, “mean fluorescence intensity” read 47.8 a.u.
`2'F-ANA at 4 5 7 9 11 13 15` — result for “mean fluorescence intensity”: 50.9 a.u.
`2'F-ANA at 2 3 4 5 6 8 9 10 11 14 15` — result for “mean fluorescence intensity”: 54.8 a.u.
Under “mean fluorescence intensity”, `2'F-ANA at 1 2 3 5 11 12 15` is recorded as 98.2 a.u.
`2'F-ANA at 1 3 5 8 9 11 12 15` — result for “mean fluorescence intensity”: 105 a.u.
For `2'F-ANA at 1 4 5 6 7 8 9 10 13 15`, “mean fluorescence intensity” read 49.2 a.u.
Under “mean fluorescence intensity”, `2'F-ANA at 7 9 11 12 13 14 15` is recorded as 229 a.u.
`2'F-ANA at 1 3 4 9 10 11 12 14`: “mean fluorescence intensity” 49.8 a.u.
`2'F-ANA at 3 7 10 11 13 14` — result for “mean fluorescence intensity”: 375 a.u.

Series 2
Target: Hepatocyte nuclear factor 3-alpha (Foxa1, Mus musculus, UniProt P35582, residues 1-468, full length assumed)
Method: EMSA with sequencing
Form: double-stranded DNA, one strand shown
Sample: in vitro
Tested at: 10 and 20 nM
Setting: whole designed probe, mean of two concentrations, ends assumed
Relative to: negative control set to 0
Reading: higher = stronger binding
Construct (chain): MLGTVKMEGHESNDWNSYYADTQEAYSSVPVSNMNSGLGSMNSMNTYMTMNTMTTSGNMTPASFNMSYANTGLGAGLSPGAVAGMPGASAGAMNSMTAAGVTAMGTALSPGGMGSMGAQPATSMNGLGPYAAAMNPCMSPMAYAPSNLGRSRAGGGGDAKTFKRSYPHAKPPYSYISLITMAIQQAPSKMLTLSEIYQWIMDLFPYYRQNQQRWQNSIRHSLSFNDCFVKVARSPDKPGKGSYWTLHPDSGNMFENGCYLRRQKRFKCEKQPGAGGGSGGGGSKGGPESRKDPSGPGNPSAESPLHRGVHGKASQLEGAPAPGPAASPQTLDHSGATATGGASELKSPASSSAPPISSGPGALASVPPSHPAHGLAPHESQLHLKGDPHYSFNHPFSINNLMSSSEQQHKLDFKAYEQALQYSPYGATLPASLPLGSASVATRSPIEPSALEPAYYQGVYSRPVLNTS
`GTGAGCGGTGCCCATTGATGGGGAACTCCTTTATCCCAACATGTTTATACAGACAAAACCAGGTTAAAATCGACACAAGGTCAACTTGAAATAAGAGGAAGGTGGGGAGACGTCACAAAATAAACATGAAGTCTTGTGTACAAGCATCTGCAGAAGAGTTCAGCCTCACCACTTGGGTAATGCTGTTGGAATGTGGTCTGGGTTCACTGTATTTGAATGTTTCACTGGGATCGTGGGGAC`: “normalised bound fraction” 0.387 ratio.
`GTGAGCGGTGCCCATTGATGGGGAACTGCTACTGCCTGTCCCTGGAATTTGATAGAAACCTCCATGACTCTCCCTTTGTTTTCCAAATAGGCCTTTCAACTTTTAATTATTTCTCCCATGTTTACTTTTCTAAAACATTTGAGATCACATCTTATCATTTGTAATTCATTATCCCACTTGGTAGATGAAGTTGCTATTAAATACTGGATTGTAGACAAGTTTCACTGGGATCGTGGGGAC` — result for “normalised bound fraction”: 0.454 ratio.
`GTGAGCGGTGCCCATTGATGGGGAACTGAGGACTGGAACATTATAGTTTTATATCTCACACTAACAGAAAACTCTTTGATATATTGCAATTATTCAATGCATGTTTAATAAATAATAAGTAATCTTGGCATAAAAATAATTTTAATTGTGGACTTTTATTATTAAAACACTTTTAATTATTATTTAATTAACAATTTTAATTATGAAATCTGCATTCAATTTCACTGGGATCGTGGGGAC`: “normalised bound fraction” 0.128 ratio.
`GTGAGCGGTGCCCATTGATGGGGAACTAATATACTATATGGAATAATGACTTTCTATATCCGTAATCAAAAATTACTTTGAATATCAGTAGGTTGAGTTAGTAGTTTGATTCTGGTCCCTAGATTACTCTGATGCAATCCCCTGTAAGAAGGACCTGACAAAGTGCCTGGTGAATGGGGTTCAGTACATGCCAGTACCTTTTCTTTCCCTGCTAATGCGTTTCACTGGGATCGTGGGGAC`: “normalised bound fraction” -0.0786 ratio.
Under “normalised bound fraction”, `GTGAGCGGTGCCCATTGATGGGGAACAACAACCAGGAGGAAACAGGGTGATTATTGATTCAAGAGAAAACAGAATATTTGTGGATTTAGGGTCAATAAAACAACCTCCACAAATGTTAAAGTAATCTAGGAAAAATATAGCTTTAAAAAATGGACAACTAGGAGAATTTCTTTTCACATAGCAATGCAATTTTCTCCTCACAGTGATAGTCATAATTTCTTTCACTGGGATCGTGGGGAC` is recorded as 0.173 ratio.

Series 3
Target: Histone acetyltransferase KAT6A, both winged helices, GST fusion (KAT6A, Homo sapiens, UniProt Q92794, residues 1-181)
Method: protein binding microarray
Form: double-stranded DNA, one strand shown
Sample: in vitro
Tested at: not given
Setting: 8-mer, flanks averaged, mean of 2 arrays, mostly near background
Relative to: not given
Reading: higher = stronger binding
Target sequence (chain): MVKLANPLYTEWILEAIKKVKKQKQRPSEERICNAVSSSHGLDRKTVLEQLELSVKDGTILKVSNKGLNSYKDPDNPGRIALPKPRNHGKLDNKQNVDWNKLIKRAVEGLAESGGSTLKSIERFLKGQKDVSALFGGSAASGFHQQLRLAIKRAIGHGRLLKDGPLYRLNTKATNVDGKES
The E-score of `AAGAAGCT` is reported as -0.137.
With `CCCGGGTA` the E-score was 0.222.
The E-score of `GCACTGAC` is reported as 0.0385.
`ATAAGGAT` has an E-score of -0.238.
For `AGTACCTG`, the E-score was -0.223.
With `ACTCCTCT` the E-score was -0.151.
With `AATAGATT` the E-score was -0.0942.
With `GCCACAAA` the E-score was -0.0707.
`GATGGTCA` gave an E-score of -0.0944.
For `CGGAGTAC`, the E-score was 0.0907.
The E-score of `CGGGGGAC` is reported as 0.166.
For `CCCCTACG`, the E-score was -0.103.
`GTCGTCCA` gave an E-score of 0.0101.
`AAACCAAG` has an E-score of -0.048.
The E-score of `AATCAGTG` is reported as -0.141.
`GAGCTAGC` has an E-score of -0.0352.
`AATAAACA` gave an E-score of -0.0401.
The E-score of `ACCTGCGA` is reported as -0.0223.

Series 4
Target: Sal-like protein 4, full length isoform B (SALL4, Homo sapiens, UniProt Q9UJQ4-2, residues 1-616)
Method: universal PBM
Form: double-stranded DNA, one strand shown
Sample: in vitro
Tested at: not given
Setting: 8-mer, flanks averaged, mean of replicates
Reading: higher = stronger binding
Target sequence (chain): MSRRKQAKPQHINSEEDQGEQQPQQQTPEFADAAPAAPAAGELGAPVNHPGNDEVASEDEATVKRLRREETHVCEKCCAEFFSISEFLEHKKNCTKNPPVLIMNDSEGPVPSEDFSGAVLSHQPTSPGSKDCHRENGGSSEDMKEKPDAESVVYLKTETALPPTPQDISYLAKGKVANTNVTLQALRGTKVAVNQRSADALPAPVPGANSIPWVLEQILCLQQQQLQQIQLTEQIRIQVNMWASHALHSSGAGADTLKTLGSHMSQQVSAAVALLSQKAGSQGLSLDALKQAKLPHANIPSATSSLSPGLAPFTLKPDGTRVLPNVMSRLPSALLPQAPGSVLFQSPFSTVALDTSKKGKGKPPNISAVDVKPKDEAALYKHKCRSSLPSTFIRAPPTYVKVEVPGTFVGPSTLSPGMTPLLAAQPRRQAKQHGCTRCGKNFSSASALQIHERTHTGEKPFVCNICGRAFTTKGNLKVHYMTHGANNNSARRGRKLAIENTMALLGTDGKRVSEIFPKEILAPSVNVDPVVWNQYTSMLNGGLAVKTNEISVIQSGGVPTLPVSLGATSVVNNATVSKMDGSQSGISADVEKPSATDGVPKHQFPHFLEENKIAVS
`GAGTCCGC` has an E-score of -0.319.
`AAACGGAG` gave an E-score of -0.0177.
`AAGGTTGG` gave an E-score of -0.0818.
`CTAGGCTC` has an E-score of -0.237.
For `ATGAAGGC`, the E-score was 0.11.
`CGTTACCA` gave an E-score of 0.109.
`ACAAAACC` has an E-score of 0.0598.
For `CAACGTAC`, the E-score was 0.0579.
`TCCAAGCA` has an E-score of 0.011.
The E-score of `ATCAAGAT` is reported as 0.121.
For `AAGTAATG`, the E-score was 0.201.
`AATCACGT` gave an E-score of 0.246.
For `GTGACGTA`, the E-score was 0.0583.
`ATGGACGC` has an E-score of -0.12.
`CATCGCTC` gave an E-score of -0.282.
The E-score of `CTCCGGCA` is reported as -0.211.
The E-score of `ACTTACCG` is reported as -0.0363.
`AGAGAAAG` has an E-score of 0.0924.

Series 5
Target: Fragile X messenger ribonucleoprotein 1, C-terminal low-complexity region (Fmr1, Mus musculus, UniProt P35922)
Method: RNA Bind-n-Seq
Form: RNA
Sample: in vitro
Tested at: 200 nM
Setting: whole 134-nt RNA, ends assumed
Together with: 150 mM LiCl
Relative to: input library
Reading: higher = stronger binding
All molecules: 7-deaza-guanosine replaces G
With `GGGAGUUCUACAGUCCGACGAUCUGUGCUACACAUCGUAUGUACCGAAUCGGGGAAAAAAAGGAAAAAAAGGGGAAAAAAAGGGGAAAGUAUUAUGUUACGCCGUUCGGAUCUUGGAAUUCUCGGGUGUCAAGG` the log2 enrichment was 0.491.
The log2 enrichment of `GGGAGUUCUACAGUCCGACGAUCAAGUCCUGUGCUACACAUCGUAUGUACCGAAUCGGUUUUUUUGGAAAAAAAGGAGGAAAGUAUUAUGUUACGCCGUUCGGAUCUGCACUUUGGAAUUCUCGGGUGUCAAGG` is reported as -2.72.
For `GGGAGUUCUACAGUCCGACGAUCGCAGGAAGUAAGAACAAAUGGAAAUGCUUCGGAUAGUGGCAGGGGUGGGGGUUGCUAAGGAAAGGGUGGGAUGGGAGUGGGUAAAGAGUUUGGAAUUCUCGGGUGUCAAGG`, the log2 enrichment was 2.01.
The log2 enrichment of `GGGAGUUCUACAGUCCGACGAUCCUCAAGUCCUGUGCUACACAUCGUAUGUACCGAAUCGGGAGGGGAGGGAGGGGAAAGUAUUAUGUUACGCCGUUCGGAUCUGCACUUCCAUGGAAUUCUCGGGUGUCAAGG` is reported as -0.428.
`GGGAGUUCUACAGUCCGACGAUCUCCUGUGCUACACAUCGUAUGUACCGAAUCGGGGCCCCCCGGGCCCCCCGGGCCCCCCGGAAAGUAUUAUGUUACGCCGUUCGGAUCUGCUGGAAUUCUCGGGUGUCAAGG` gave a log2 enrichment of -1.66.
For `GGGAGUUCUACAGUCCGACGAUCUGGGAGGUGGAUUUUGUUUAUUUUUUUAGCUCAUUUCCAGGGGUGGGAAUUUUUUUUUAAUAUGUGUCAUGAAUAAAGGUGUUUUUGAAAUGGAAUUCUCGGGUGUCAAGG`, the log2 enrichment was 0.608.
For `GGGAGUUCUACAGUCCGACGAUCUGGCCCUGGUGGCAUGCGGGGAGGAAGAGGUGGCCUCAUGGAUCGUGGUGGUCCCGGUGGAAUGUUCAGAGGUGGCCGUGGUGGAGGCAGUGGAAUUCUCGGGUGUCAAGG`, the log2 enrichment was -0.281.
The log2 enrichment of `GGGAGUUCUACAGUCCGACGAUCAGUCCUGUGCUACACAUCGUAUGUACCGAAUCGGGGUUUUUGGGGAAAGGGGAGGGGAAAGUAUUAUGUUACGCCGUUCGGAUCUGCACUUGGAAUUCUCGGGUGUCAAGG` is reported as -0.373.
